Results pooled from the literature.
Parts stem from different laboratories: compare values within a part only.

Block 1
Target: Sal-like protein 4, full length isoform B (SALL4, Homo sapiens, UniProt Q9UJQ4-2, residues 1-616)
Method: universal PBM
Molecule type: double-stranded DNA, one strand shown
Sample: in vitro
Tested at: not given
Setting: 8-mer, flanks averaged, mean of replicates
Reading: higher = stronger binding
The E-score of `TATTAACA` is reported as 0.345.
`CCACAGCG` gave an E-score of -0.187.
With `AGCCTGGC` the E-score was -0.325.
With `CGGTCCCC` the E-score was -0.411.
`AGCAAACT` has an E-score of 0.0465.
For `CGCCCTAC`, the E-score was -0.0115.
The E-score of `CGCAACAC` is reported as -0.0995.
With `GGCTTACC` the E-score was -0.291.
`ATGCCACG` has an E-score of -0.123.
For `CCGGATGA`, the E-score was -0.233.
`AGCTATGC` has an E-score of 0.0163.
`AGTGTAAA` has an E-score of 0.154.
`AGCACGCC` has an E-score of -0.251.
`CACACCCA` gave an E-score of -0.0886.
With `AAAGTTGG` the E-score was 0.114.
With `ACTGAGTA` the E-score was 0.047.
`TCGTTTAA` has an E-score of 0.116.
`CCCAGGTC` gave an E-score of -0.285.
For `GGATCAAC`, the E-score was 0.0287.
`GAATCCTC` gave an E-score of -0.198.
`GCTTACAA` gave an E-score of 0.223.
With `GGCTCAAC` the E-score was -0.226.
For `ATGGTTCG`, the E-score was -0.0803.
With `ACTCAAGG` the E-score was -0.106.
`AGTGCGTG` has an E-score of -0.206.

Block 2
Target: RING finger protein unkempt homolog, zinc fingers 1-6, GST-SBP tag (UNK, Homo sapiens, UniProt Q9C0B0, residues 30-357)
Method: RNA Bind-n-Seq
Molecule type: RNA
Sample: in vitro
Tested at: not given
Setting: RNA with constant flanks, human and mouse sites, ends assumed
Reference: input RNA pool
Reading: higher = stronger binding
All sequences stand within: GGGAGUUCUACAGUCCGACGAUC … CAACAGAGGAUUGAGCAUCA
Target sequence (chain): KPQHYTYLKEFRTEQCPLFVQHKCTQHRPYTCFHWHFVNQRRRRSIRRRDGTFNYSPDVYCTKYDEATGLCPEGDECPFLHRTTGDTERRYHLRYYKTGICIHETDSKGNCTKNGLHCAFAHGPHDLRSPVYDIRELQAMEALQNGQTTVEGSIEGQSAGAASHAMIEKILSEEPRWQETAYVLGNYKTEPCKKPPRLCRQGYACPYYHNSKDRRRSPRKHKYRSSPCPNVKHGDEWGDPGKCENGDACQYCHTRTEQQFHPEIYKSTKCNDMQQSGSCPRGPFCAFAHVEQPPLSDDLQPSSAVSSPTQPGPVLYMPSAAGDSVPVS
`GAUCACCAAUCACCAACACUAUUAAACAGCAAUCAAAAUUUACCAGACUGAAAAUUUUGUUUCUUUUUACAGAGAAGAAUGGUUUGUCAUUCAUUGAGACAUCUGCUCUAGAUUCUACAA` gave a bound/input enrichment of 0.108 ratio.
For `CUGUGUUAAAAUAAUUGGAAAGGUUUCUGUGUUACAUGAGAGGGUUUUUUCGGUUUUGUUUUUUUAAACAAAGACUCGUAGAGAUGAAAAAAUUACUAAUGAAAUUGUGUACGUGUCUGU`, the bound/input enrichment was 0.354 ratio.
For `GACUUGCUUCUGCAGGCUUGUCCAUUUGGUACUUUAUUAGAUGCCAACUUACAGAAUUCAUUAGAUAAUACCAAUUUUGCAUCUGUGACUCAGCCACAGAAACAGCCAGCUUGGAAAACU`, the bound/input enrichment was 1.75 ratio.
For `UCUGGUUGAUUUAGCUGGUAGUGAAAAGGUUAGUAAAACUGGAGCUGAAGGUGCUGUGCUGGAUGAAGCUAAAAACAUCAACAAGUCACUUUCUGCUCUUGGAAAUGUUAUUUCUGCUUU`, the bound/input enrichment was 0.308 ratio.
The bound/input enrichment of `AUGCAGAUGGCUGGGAAGGACAUCAUCCUCACAGACAAAGGAACUGCUGUGUUACAGUUCCUCACAAGCCUCUUUAAGCCUUUUGUGGAAUCAUAUCAGUUACUUUGCAGAUACCUUUUG` is reported as 0.0856 ratio.
`UUUUUCCCUUUUGUUUUGUUUUUAUUAUUAACUGAUUUAAAGUAGAACAAAAACAGCUUCUGGCGAGGACCAGGCUGACCAGGGUGCUGUAGCCAGCCUGCUUGCUGUACUUGGUCAUUU` has a bound/input enrichment of 0.21 ratio.
With `CAAGCUGAACAGCUUGCUGCUGAGACUGAGGGCAUCUCAGAGCUUCCCCAUGUGGAACGGAACUUACAGGAGAUCCAGCAGGCGGGAGAGCGCCUGCGUUCCCGUACCCUAACACGCACG` the bound/input enrichment was 0.112 ratio.
For `AGUGAUGGUGAAAUGCCAAAAUUUGAUGGUGCUGGUUAUGAUAAGGAUCUGGUGGAAGCCCUUGAAAGAGACAUUGUAUCCAGGAAUCCUAGCAUUCAUUGGGAUGACAUAGCAGAUCUG`, the bound/input enrichment was 0.12 ratio.
`CUGCGCUUUUACACGGCCCCGCCUGGCCCCCGGCUCGCCCUAUGUUUCGUGGACAUCCGCCGGUUCGGCCGCUGGGACCUUGGGGGAAAGUGGCAGCCGGGCCGCGGGCCCUGUGUCUUG` has a bound/input enrichment of 0.109 ratio.
`AAUGCGUGGAUGGAGACGGAAGCCGUGAACUACCAUGAUGAAACAGGGGAGACCAUGGACAACCUCACCCUGGAGGCCGGAGAUGACGCAGGGAAGGUGAAGUGGGUGGACAUCAGCGAC` gave a bound/input enrichment of 0.18 ratio.
`GUUACAAGACCAAUAUUUGGGAUACUGGGCACAAUCCAUCUGGUGGCAGGUAAUUAUCUUGUUGUCAUCACCAAAAAGAUGAAAGUAGGUGAAUGUUUUAAUCAUGCGGUCUGGAGAGCC` gave a bound/input enrichment of 0.724 ratio.

Block 3
Target: Histone acetyltransferase KAT6A, both winged helices, GST fusion (KAT6A, Homo sapiens, UniProt Q92794, residues 1-181)
Method: protein binding microarray
Molecule type: double-stranded DNA, one strand shown
Sample: in vitro
Tested at: not given
Setting: 8-mer, flanks averaged, mean of 2 arrays, mostly near background
Reference: not given
Reading: higher = stronger binding
Construct (chain): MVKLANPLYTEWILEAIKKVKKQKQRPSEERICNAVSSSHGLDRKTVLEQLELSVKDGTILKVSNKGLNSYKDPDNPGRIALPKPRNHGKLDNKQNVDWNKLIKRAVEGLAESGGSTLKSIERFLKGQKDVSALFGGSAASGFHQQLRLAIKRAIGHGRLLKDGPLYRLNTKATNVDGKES
The E-score of `AGCACCAA` is reported as -0.148.
`GATGGAGC` has an E-score of -0.0438.
`AGACATCG` gave an E-score of -0.0794.
With `CATGACGA` the E-score was -0.0119.
For `CAGGTATG`, the E-score was -0.127.
`CTGTGAAG` gave an E-score of -0.174.
With `AGATTAAT` the E-score was -0.118.
For `CATCATGA`, the E-score was -0.218.
`GACTTGGA` gave an E-score of -0.151.
`ATCTAGAG` has an E-score of -0.202.
The E-score of `AACTGCGA` is reported as 0.0774.
`GTAGACCA` has an E-score of -0.107.
For `CAAAGGCG`, the E-score was 0.0631.
For `ATAGCCGG`, the E-score was 0.273.
`GATGGCTA` gave an E-score of -0.0531.
`GAAAAGGA` gave an E-score of -0.195.
The E-score of `CTATAAAG` is reported as -0.0188.
`CCTTAGGC` has an E-score of -0.038.
The E-score of `CTGGTCCC` is reported as -0.145.
With `CCATCACA` the E-score was -0.196.

Block 4
Target: Ras GTPase-activating protein-binding protein 1, RRM domain (G3BP1, Homo sapiens, UniProt Q13283)
Chain of UniProt Q13283 (whole entry, looked up): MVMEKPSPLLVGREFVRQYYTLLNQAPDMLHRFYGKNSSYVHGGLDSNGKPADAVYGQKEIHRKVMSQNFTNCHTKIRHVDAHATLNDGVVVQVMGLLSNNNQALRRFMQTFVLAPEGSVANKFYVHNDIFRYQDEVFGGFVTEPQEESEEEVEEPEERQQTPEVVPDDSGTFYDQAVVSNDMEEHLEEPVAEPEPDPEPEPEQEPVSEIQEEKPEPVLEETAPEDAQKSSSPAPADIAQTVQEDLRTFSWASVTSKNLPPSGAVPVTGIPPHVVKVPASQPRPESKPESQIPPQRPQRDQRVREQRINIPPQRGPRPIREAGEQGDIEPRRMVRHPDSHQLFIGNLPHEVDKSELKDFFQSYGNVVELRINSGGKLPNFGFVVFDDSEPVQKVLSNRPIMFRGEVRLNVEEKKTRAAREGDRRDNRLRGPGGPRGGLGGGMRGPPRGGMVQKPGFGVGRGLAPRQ
Method: RNA Bind-n-Seq
Molecule type: RNA
Sample: in vitro
Tested at: 1 µM
Setting: whole 134-nt RNA, ends assumed
Together with: 150 mM KCl
Reference: input library
Reading: higher = stronger binding
All sequences stand within: GGGAGUUCUACAGUCCGACGAUC … UGGAAUUCUCGGGUGUCAAGG
`UGGGAGGUGGAUUUUGUUUAUUUUUUUAGCUCAUUUCCAGGGGUGGGAAUUUUUUUUUAAUAUGUGUCAUGAAUAAAGUGGUUUUUGAAA` gave a log2 enrichment of 1.59.
With `CCUGUGCUACACAUCGUAUGUACCGAAUCGGUUUUUUUGGGUUUUUUUGGGUUUUUUUGGAAAGUAUUAUGUUACGCCGUUCGGAUCUGC` the log2 enrichment was -0.123.
The log2 enrichment of `AGUCCUGUGCUACACAUCGUAUGUACCGAAUCGGGAAAGGGUUUUUGGGUUUUUGGGAAAGUAUUAUGUUACGCCGUUCGGAUCUGCACU` is reported as 0.326.
`ACCUUCACGGCAUGGUGCAACUCCCACCUGCGGAAGGCAGGCACACAGAUCGAGAACAUUGAUGAGGACUUCCGAGACGGGCUCAAGCUC` has a log2 enrichment of -0.11.
With `CUCAAGUCCUGUGCUACACAUCGUAUGUACCGAAUCGGGGUUGGGUUGGUUGGGAAAGUAUUAUGUUACGCCGUUCGGAUCUGCACUUCC` the log2 enrichment was -0.0274.
The log2 enrichment of `CAAGUCCUGUGCUACACAUCGUAUGUACCGAAUCGGGGUGGGGAAAGGGGUGGGGAAAGUAUUAUGUUACGCCGUUCGGAUCUGCACUUC` is reported as 1.03.
`CAAGUCCUGUGCUACACAUCGUAUGUACCGAAUCAAAUUUAAAUUUAAACCCAAAAAAGUAUUAUGUUACGCCGUUCGGAUCUGCACUUC` has a log2 enrichment of -0.306.
For `AAGUCCUGUGCUACACAUCGUAUGUACCGAAUCGGGAAAGGGUUUUUGGGUUUGGGAAAGUAUUAUGUUACGCCGUUCGGAUCUGCACUU`, the log2 enrichment was 0.605.
`AGUCCUGUGCUACACAUCGUAUGUACCGAAUCGGGGCCCCCGGCCCCCGGGCCCCCGGAAAGUAUUAUGUUACGCCGUUCGGAUCUGCAC` has a log2 enrichment of -0.764.
With `GUCCUGUGCUACACAUCGUAUGUACCGAAUCGGUUUUUGGGGUUUUUGGUUUUUGGGGAAAGUAUUAUGUUACGCCGUUCGGAUCUGCAC` the log2 enrichment was -0.237.

Some of these lines once more (block 1):
With `GGCTCAAC` the E-score was -0.226.
With `ACTGAGTA` the E-score was 0.047.
With `CGGTCCCC` the E-score was -0.411.
`GAATCCTC` gave an E-score of -0.198.
`CCACAGCG` gave an E-score of -0.187.
`TCGTTTAA` has an E-score of 0.116.
`CACACCCA` gave an E-score of -0.0886.
`AGCAAACT` has an E-score of 0.0465.
`AGCTATGC` has an E-score of 0.0163.
`AGCACGCC` has an E-score of -0.251.
With `ACTCAAGG` the E-score was -0.106.
